Measurements from different studies.
Compare with care: the assays were run in different laboratories.
HTR1B: 5-hydroxytryptamine receptor 1B (HTR1B, Homo sapiens, UniProt P28222)
Sequence of UniProt P28222 (whole entry, looked up): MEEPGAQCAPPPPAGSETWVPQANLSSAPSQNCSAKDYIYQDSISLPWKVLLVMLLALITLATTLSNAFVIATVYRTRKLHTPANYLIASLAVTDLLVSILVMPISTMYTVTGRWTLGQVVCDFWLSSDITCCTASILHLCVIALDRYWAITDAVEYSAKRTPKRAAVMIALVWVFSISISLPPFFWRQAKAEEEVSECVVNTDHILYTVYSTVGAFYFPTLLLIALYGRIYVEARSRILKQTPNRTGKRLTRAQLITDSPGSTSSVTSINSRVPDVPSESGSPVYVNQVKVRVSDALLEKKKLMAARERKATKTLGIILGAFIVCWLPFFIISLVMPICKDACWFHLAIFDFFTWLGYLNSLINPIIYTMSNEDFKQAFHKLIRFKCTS
SIRT3: NAD-dependent protein deacetylase sirtuin-3, mitochondrial (SIRT3, Homo sapiens, UniProt Q9NTG7)
Sequence of UniProt Q9NTG7 (whole entry, looked up): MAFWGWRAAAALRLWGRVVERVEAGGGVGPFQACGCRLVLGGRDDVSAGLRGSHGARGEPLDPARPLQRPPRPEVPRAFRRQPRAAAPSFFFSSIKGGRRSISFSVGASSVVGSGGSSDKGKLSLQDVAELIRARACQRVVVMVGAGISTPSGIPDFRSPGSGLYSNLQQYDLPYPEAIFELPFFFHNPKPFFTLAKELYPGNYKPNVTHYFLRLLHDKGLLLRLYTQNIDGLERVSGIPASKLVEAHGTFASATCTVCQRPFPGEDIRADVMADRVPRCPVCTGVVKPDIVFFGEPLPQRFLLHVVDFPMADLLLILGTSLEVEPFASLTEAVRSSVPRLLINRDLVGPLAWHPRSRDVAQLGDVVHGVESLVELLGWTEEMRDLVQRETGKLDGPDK
AMY2: Pancreatic alpha-amylase (AMY2, Sus scrofa, UniProt P00690)
Sequence of UniProt P00690 (whole entry, looked up): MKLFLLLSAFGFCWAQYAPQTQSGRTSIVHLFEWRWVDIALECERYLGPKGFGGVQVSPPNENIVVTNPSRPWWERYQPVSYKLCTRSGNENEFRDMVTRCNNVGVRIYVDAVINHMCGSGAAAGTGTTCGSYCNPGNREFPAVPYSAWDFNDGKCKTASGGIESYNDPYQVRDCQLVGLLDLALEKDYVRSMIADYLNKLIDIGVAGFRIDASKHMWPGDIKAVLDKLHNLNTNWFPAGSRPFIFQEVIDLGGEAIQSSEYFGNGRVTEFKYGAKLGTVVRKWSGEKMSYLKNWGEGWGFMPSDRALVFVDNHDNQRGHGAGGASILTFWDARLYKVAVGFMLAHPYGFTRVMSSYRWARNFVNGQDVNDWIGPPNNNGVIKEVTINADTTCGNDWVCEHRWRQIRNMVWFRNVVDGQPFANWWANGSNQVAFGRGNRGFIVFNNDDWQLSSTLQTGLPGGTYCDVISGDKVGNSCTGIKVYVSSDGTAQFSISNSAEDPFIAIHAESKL
Sequence of UniProt Q9UPE1 (whole entry, looked up): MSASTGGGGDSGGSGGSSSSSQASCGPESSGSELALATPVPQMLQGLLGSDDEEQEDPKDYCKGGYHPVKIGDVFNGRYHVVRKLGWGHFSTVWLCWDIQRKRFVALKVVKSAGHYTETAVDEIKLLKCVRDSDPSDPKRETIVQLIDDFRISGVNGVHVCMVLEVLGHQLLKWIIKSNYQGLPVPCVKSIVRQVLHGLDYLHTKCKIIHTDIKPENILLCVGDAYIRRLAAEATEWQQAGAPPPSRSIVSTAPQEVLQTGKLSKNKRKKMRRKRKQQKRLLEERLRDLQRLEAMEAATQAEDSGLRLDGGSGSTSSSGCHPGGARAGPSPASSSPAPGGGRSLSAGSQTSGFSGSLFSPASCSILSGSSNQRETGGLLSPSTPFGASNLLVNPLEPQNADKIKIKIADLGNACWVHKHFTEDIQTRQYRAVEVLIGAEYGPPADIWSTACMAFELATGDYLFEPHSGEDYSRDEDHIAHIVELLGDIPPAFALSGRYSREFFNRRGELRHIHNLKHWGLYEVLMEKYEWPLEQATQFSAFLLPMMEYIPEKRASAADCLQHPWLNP
Sequence of UniProt P28566 (whole entry, looked up): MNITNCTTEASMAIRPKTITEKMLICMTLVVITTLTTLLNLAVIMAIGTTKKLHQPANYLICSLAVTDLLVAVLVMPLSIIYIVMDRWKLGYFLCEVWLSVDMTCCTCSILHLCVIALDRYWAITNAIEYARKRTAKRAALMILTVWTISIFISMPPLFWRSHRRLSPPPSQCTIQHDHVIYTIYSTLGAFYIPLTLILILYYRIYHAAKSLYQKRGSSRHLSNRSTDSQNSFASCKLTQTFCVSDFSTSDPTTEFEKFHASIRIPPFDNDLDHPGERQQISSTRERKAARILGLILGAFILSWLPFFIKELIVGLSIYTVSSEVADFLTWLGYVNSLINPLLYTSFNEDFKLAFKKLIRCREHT
Sequence of UniProt O95835 (whole entry, looked up): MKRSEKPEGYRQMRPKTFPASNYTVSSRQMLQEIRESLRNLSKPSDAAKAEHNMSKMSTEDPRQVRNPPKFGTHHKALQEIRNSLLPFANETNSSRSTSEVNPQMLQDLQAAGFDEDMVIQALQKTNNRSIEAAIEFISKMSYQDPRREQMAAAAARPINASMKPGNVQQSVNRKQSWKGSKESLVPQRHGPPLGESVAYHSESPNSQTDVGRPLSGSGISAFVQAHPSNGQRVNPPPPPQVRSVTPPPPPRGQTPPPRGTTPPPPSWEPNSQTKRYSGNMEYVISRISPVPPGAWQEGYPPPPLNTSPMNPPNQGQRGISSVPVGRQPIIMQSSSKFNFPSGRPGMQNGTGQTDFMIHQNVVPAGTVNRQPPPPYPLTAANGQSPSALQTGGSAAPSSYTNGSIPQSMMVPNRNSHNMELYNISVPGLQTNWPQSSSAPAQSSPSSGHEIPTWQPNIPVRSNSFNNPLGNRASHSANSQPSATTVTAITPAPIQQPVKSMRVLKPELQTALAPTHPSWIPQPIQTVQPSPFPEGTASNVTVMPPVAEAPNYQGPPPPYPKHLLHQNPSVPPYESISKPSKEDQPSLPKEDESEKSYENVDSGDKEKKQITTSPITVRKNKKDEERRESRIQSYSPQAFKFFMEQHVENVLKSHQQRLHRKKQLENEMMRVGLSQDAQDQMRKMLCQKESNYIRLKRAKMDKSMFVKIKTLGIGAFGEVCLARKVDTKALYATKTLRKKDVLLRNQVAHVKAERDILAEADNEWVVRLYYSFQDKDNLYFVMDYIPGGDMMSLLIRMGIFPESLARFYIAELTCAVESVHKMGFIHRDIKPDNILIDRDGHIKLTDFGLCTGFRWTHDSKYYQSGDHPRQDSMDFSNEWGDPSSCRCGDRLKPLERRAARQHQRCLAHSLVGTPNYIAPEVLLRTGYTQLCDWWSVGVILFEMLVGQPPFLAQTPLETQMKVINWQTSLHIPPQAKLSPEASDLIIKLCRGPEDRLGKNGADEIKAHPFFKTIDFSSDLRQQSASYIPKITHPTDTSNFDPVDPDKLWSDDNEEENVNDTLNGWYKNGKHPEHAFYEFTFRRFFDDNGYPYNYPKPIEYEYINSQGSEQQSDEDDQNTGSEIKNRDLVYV
Sequence of UniProt Q96KQ7 (whole entry, looked up): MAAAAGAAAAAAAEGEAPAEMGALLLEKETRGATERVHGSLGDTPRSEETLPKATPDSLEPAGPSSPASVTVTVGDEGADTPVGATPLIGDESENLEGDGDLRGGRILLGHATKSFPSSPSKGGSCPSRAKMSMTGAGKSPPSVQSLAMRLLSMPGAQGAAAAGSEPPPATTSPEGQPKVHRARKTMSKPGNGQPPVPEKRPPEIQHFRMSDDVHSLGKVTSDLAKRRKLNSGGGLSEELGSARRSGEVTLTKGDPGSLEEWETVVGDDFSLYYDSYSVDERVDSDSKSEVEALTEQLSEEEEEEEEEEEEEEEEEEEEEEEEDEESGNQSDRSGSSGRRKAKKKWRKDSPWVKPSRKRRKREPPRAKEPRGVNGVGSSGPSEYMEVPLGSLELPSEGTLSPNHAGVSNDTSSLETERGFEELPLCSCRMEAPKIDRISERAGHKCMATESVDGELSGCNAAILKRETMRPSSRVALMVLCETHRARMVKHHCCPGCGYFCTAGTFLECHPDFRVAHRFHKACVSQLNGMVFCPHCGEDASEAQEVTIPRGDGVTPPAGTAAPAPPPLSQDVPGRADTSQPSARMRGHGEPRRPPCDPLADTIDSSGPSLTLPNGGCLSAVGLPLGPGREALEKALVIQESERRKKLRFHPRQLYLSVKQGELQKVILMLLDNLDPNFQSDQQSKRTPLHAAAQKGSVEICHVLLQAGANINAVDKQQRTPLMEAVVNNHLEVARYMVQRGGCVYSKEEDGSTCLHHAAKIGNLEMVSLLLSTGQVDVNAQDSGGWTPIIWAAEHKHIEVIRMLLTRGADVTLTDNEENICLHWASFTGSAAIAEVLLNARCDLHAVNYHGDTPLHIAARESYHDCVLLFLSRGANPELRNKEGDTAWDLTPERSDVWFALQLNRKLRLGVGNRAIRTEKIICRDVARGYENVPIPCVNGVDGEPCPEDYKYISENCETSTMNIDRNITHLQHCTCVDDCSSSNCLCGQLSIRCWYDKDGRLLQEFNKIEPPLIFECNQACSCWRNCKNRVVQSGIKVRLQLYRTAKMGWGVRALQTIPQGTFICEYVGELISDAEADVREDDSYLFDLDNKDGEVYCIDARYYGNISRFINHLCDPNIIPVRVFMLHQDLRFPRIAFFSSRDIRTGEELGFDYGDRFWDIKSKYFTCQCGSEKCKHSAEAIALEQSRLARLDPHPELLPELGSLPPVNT

CCCCCCCCCCCCNC(=S)NCCCC[C@H](NC(C)=O)C(=O)N[C@H](C)C(=O)N[C@@H](CCCNC(=N)N)C(N)=O  inhibition (SIRT1 (Homo sapiens, UniProt Q96EB6); enzyme activity, inhibitor; 1 µM): 34%
c1ccc(OC[C@H]2CN(CCN3CCc4ccccc43)CCO2)nc1  inhibition (HTR1E (Homo sapiens, UniProt P28566); radioligand binding; concentration not given, together with: [3H]5-HT): -35.2%
O=C(Nc1cccc(C(F)(F)F)c1)Nc1ccccc1O  inhibition (SRPK3 (Homo sapiens, UniProt Q9UPE1); enzyme activity, inhibitor, FRET; 10 µM): 58.9%
C[Si](C)(C)C[C@@H](CN)CC(=O)O  inhibition (kainate receptor, rat; binding, radioligand binding; 75 µM, together with: [3H]kainic acid): 2%
CC(C)Cn1c(SCC(=O)N2CCc3ccccc3C2)nc2cc(Cl)ccc2c1=O  inhibition (HTR1B; ligand displacement, radioligand; 10 µM): 18%
Cc1ccc(CNC(=O)[C@H](CCc2ccccc2)NC(=O)[C@H](CC(=O)NCC(C)(C)C)NC(=O)c2ccc(OCc3ccccc3)cc2)cc1  inhibition (Prothrombin (F2, Homo sapiens, UniProt P00734); enzyme activity, inhibitor; 100 µM): 13%
Cc1ncsc1-c1ccc(C(C)NC(=O)C2CC(O)CN2C(=O)C(NC(=O)CCCCCCCCCCN2CCCC(Nc3ncc(Cl)c(Nc4ccccc4S(=O)(=O)C(C)C)n3)C2)C(C)(C)C)cc1 (centres unmarked)  log2 fold change (22Rv1; RNA-seq, refers to: RFXAP mRNA; concentration not given; relative to: DMSO): -1.05
C=CC(=O)Nc1cccc(Cn2ncc3cnc(Nc4cnn(CCOC)c4)nc32)c1  binding (human KIT-autoinhibited; KINOMEscan; 100 nM): 66%
Cc1cccc(O[C@H]2CCC[C@@H](C(C)CNCc3ccncc3)C2)c1 (relative stereo)  inhibition (LATS1 (Homo sapiens, UniProt O95835); enzyme activity, inhibitor; 1 µM): 4%
O=C(NC1CCC1)[C@H](Cc1c[nH]c2ccccc12)NC(=O)[C@H](CCCCNC(=S)NCCc1noc(=O)[nH]1)NS(=O)(=O)c1cccc(F)c1  inhibition (SIRT3; enzyme activity, inhibitor; 10 µM): 3%
C=CS(=O)(=O)Nc1ccc2nc(NCCCCCN(C)C)nc(NCCCCCCN(C)C)c2c1  inhibition (Histone-lysine N-methyltransferase SETDB1, triple Tudor domain (SETDB1, Homo sapiens, UniProt Q15047); 3.704 µM): 103%
O=C1c2sc(-c3ccc(N4CCC(F)C4)nc3F)nc2CCN1c1cccnc1 (centres unmarked)  inhibition (HTR1B; ligand displacement, radioligand; 1 µM): -6%
COc1c(Br)c(O)c(Br)c2c1C(=O)CC(c1ccccc1)O2 (centres unmarked)  inhibition (AMY2; enzyme activity, inhibitor; 50 µM, 30 min): 45%
C[C@H](NC(=O)[C@H](CC(=O)NCC(C)(C)C)NC(=O)C(=O)c1c[nH]c2ccccc12)C(=O)NCc1ccc(F)cc1F  inhibition (trypsin; enzyme activity, inhibitor; 100 µM): 15%
COC1CN([C@H]2CC[C@H]([C@@]3(C)Oc4c(Cl)cc(C(=O)NCc5c(SC)cc(C)[nH]c5=O)c(C)c4O3)CC2)C1  log2 fold change (RNA-seq, refers to: TMTC1; human, whole blood; dose not given, 24 h; relative to: pretreatment baseline): 3.63
Cc1ccc(N(O)/N=N/c2ccc(S(=O)(=O)Nc3nccs3)cc2)cc1  inhibition (AMY2; enzyme activity, inhibitor; 20 µg/mL): 5.26%
C/C=C/C(=O)Nc1ccc2nc(NCCCCCN(C)C)nc(NCCCCCCN(C)C)c2c1  inhibition (EHMT2 (Homo sapiens, UniProt Q96KQ7); enzyme activity, inhibitor, radiometric; 10 µM): 25%
Cc1cc(C)nc(SCC(=O)Nc2ncc(Cc3cccc4ccccc34)s2)n1  inhibition (SIRT3; enzyme activity, inhibitor; 10 µM): < 5%
O=C1c2sc(-c3ccc(N4CCC(CO)CC4)nc3F)nc2CCN1c1cccnc1  inhibition (PCP site; radioligand binding; 1 µM, together with: antagonist radioligand): 19%
Cc1ccc(CNC(=O)C(CCc2ccccc2)NC(=O)C(NC(=O)Cc2cccc(Oc3ccccc3)c2)C(C)O)cc1 (centres unmarked)  inhibition (trypsin; enzyme activity, inhibitor; 100 µM): 3%
